Published values of several laboratories.
Numbered parts are unrelated; each lists some results of a single study.

Study 1
Target: Histone acetyltransferase KAT6A, winged helix 2, GST fusion (KAT6A, Homo sapiens, UniProt Q92794, residues 85-181)
Method: protein binding microarray
Molecule type: double-stranded DNA, one strand shown
Sample: in vitro
Tested at: not given
Notes: 8-mer, flanks averaged, mean of 2 arrays, mostly near background
Relative to: not given
Reading: higher = stronger binding
Target sequence (chain): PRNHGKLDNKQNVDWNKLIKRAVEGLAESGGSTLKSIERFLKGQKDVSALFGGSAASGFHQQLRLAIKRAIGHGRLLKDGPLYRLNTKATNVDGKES
| Sequence | E-score |
| --- | --- |
| ACGTTCAT | -0.223 |
| GAGTCTAC | -0.13 |
| CTAGGGGA | -0.169 |
| ACCAGGAG | 0.0649 |
| ATATTTCG | 0.0938 |
| CTAATAGA | -0.00292 |
| ACTACCTC | 0.0405 |
| AGACTGGC | -0.151 |
| GCCACGGA | -0.0114 |
| ATGGACTA | -0.178 |
| CCACCAGC | 0.102 |
| CGATCCCA | 0.0023 |
| CCCTTTGA | -0.146 |
| TAAAGGGA | 0.0287 |
| ATTCCGCA | 0.0618 |
| GCCTGAGC | 0.167 |

Study 2
Target: Interferon regulatory factor 7, full length, phosphomimetic (IRF7, Homo sapiens, UniProt Q92985, residues 1-503, S471D/S472D/S475D/S476D/S477D/S483D/S484D/S487D)
Sequence of UniProt Q92985 (whole entry, unmodified, looked up): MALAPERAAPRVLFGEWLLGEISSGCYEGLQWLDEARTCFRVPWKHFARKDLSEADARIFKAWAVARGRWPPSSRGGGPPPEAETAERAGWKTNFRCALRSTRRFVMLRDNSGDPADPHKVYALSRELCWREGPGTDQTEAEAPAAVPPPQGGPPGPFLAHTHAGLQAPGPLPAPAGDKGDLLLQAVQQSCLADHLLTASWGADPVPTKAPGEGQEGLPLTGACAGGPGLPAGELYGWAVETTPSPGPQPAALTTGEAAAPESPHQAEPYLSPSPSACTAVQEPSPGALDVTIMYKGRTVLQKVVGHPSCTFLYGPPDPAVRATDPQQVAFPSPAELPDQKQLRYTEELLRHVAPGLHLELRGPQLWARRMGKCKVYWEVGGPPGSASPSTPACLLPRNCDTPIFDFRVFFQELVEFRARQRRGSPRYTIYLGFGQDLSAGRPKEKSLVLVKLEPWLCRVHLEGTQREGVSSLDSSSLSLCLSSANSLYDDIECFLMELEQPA
Method: protein-binding microarray
Molecule type: double-stranded DNA, one strand shown
Sample: in vitro
Tested at: 2200 nM top
Notes: 60-bp whole probe
Added: salmon DNA 0.4 mg/ml
Relative to: random background probes
Reading: higher = stronger binding
Shared flanks, not repeated: GCCTAGCAC … GTCTTGATTCGCTTGACGCTGCTG
| Sequence | fitted relative affinity |
| --- | --- |
| TTAGATATCGGTTTCGGTTAGTGCTAG | 7.26 z-score |
| TTAGGGATCGGGACTGGGTTAGTGCTA | -0.801 z-score |
| GACGATTTCAGTATGGAGACGTGCTAG | 0.637 z-score |
| TCAACTTTCTCTGCTCTTTTCGTGCTA | 2.09 z-score |
| GACGGTCTCGGATTCGGGACGTGCTAG | 0.654 z-score |
| GACGGTATGGGTCTCGGGACGTGCTAG | -0.565 z-score |
| TCAGTTTTGAGTTTTCCACTGTGCTAG | 2.46 z-score |
| GACGGTTTCCTTTCGCTGACGTGCTAG | 5.88 z-score |
| AGATGCCAAGAGGCATGATGGTGCTAG | -0.491 z-score |
| GACGGTATCGTTTTCCTGACGTGCTAG | 2.27 z-score |
| TTAGGTTTCGGTATCGGTGAGTGCTAG | 7.66 z-score |
| GACGGTCTCGGACTGGGTACGTGCTAG | -0.526 z-score |
| TCATCTTTAACATATTCTACTGTGCTA | 0.96 z-score |
| TCAGGACTGCTTCTCCTTTAGTGCTAG | 0.981 z-score |
| GCAGGGCAGGCAGGCTGAGGGTGCTAG | -1.58 z-score |
| GACGAACAGAGACTGGAGACGTGCTAG | -0.348 z-score |
| GACGATATAAGACTGGAGACGTGCTAG | -0.318 z-score |
| TTACGACTGGACTATCGGTTAGTGCTA | 0.573 z-score |

Study 3
Target: Sal-like protein 4, full length isoform B (SALL4, Homo sapiens, UniProt Q9UJQ4-2, residues 1-616)
Method: universal PBM
Molecule type: double-stranded DNA, one strand shown
Sample: in vitro
Tested at: not given
Notes: 8-mer, flanks averaged, mean of replicates
Reading: higher = stronger binding
| Sequence | E-score |
| --- | --- |
| AGCGCTCG | -0.284 |
| ACAGTCCT | -0.0284 |
| GGGCCAGA | -0.395 |
| CGTTACTC | -0.115 |
| GCCGAGGA | -0.101 |
| AGCTACGG | -0.265 |
| CGGGAGGC | -0.358 |
| ACATACTC | 0.21 |
| AACTATTC | 0.121 |
| GCATTAGA | 0.186 |
| AGCGCTGA | -0.185 |
| AGTAGGCA | 0.0496 |
| GCTGTAAC | -0.136 |
| ATTACCGG | -0.0232 |
| GCTCTGGA | -0.0442 |
| TGCTGAAA | 0.00521 |
| CGACGACA | -0.0862 |
| AACAACGA | 0.157 |
| CATTAACG | 0.117 |
| AGTCAGAC | -0.0917 |
| AGCGAGAC | -0.317 |
| TACCGAGA | -0.0484 |
| AGGTCGGA | -0.0651 |
| GGCGGGAC | -0.319 |
| CGAGTGGA | 0.018 |

Study 4
Target: RING finger protein unkempt homolog, zinc fingers 1-6, SBP tag (UNK, Homo sapiens, UniProt Q9C0B0, residues 30-357)
Sequence of UniProt Q9C0B0 (30-357, looked up): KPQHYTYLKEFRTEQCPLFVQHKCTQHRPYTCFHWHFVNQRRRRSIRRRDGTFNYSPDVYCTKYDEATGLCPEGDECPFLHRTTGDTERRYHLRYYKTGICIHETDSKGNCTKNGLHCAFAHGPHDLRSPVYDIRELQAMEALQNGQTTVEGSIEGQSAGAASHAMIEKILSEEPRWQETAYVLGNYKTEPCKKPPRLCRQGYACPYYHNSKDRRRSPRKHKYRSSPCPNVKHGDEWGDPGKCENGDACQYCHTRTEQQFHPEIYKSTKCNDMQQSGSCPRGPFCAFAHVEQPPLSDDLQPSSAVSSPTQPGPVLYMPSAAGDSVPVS
Method: RNA Bind-n-Seq
Molecule type: RNA
Sample: in vitro
Tested at: 100 nM
Notes: RNA with constant flanks, vertebrate orthologous sites, ends assumed
Relative to: input RNA pool
Reading: higher = stronger binding
| Sequence | bound/input enrichment |
| --- | --- |
| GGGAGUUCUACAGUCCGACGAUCAGCAACUCAAGGAUUGAGGACUGGUUUUACAAAUAUACCAAGUAGAUAUGGAACUAAUAAUAGAAUUGGACAACCAAGACCAUGAUAGACUCUAACUUAUUUUUAUAAGGAAUAUUGACUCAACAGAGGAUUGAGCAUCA | 0.369 ratio |
| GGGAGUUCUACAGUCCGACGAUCUUGUAUGUAGAGAAAAUUUUUCAUUGACCCCCCCAUUGUGAAACUCCAUAGCAGUUUAUUUAGAAUCUUAAUUUUUCUAAUACAAGCUCACUGUAUUAGUCAUUUUAGCCCAUAAUUAAACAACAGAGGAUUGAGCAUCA | 4 ratio |
| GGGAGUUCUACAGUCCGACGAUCGUAAUGUGUUUUUAUUUAUUGAAAAUUGUUUGUGCUAAGGAUUGUGUUAGAUUUACAAAUUAGUGGAUUGAUUCCUCUUUGUUGUGUUGCUUUCAUUGUUGAAAAUAAAUAGAACUUUGACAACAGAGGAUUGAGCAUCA | 1.4 ratio |
| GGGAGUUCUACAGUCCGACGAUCGUUGGGUCAUGACCCUUACAGGUUAGGUCAUGAUGCUUACAGGUUAGGACAAGAUCCCUAUAGAUUAGGGCAUGAUCCAUAUAGACUAACUCCUGAUCCCUAUAGGAUGUCACCUAGACCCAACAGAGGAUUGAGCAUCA | 0.47 ratio |
| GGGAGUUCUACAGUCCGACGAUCCGGAGCAGUUGCCCAGUUCUGAGCACUCGCUACAGGGGUACUUUGGCCCAAGCGAUGAAGCAGAUGUGUCUUACCAGCAAGAUAAUAACAGCCCAGUGUCCAGCAGCCCCUCCACAACUGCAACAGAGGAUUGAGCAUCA | 0.256 ratio |
| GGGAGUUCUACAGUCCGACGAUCAUGCACAUGCGCUGUCACCAAAAACAAACCACACCUCUCAAACUUCAUUCAGAGCUGUUCUAGUGUUUCCCAUUCCCCACCCUUCCCACUGCCUUCGAUGAUCAAGUAUCCUCAGUUCUCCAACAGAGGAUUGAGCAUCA | 1.4 ratio |
| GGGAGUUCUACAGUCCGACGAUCCAGCGCCAUGGUCGAUGGCACAGAGCUCAAGAAAGUGAGAUCCAAUUCACGCAUUUAUCACCGCUACUUUCUCCUUGACGCCGACAUGCAGUCCUUGAGAUGGGAGCCCACCAAGAAGGACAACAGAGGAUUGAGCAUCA | 0.174 ratio |
| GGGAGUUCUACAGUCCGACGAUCACGCAUUUUGCAACUUGGAUGUGGUCUGCACAGGAAGCUGCUGGCCCCUCCACAACAACACAGAAAAUGUUUGUCUUUUUUUUUUUAAAGAUGUUAAAACUGAAUUGAAUUUACGAAAAACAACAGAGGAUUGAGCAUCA | 0.23 ratio |
| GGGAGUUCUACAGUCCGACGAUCGCAAUGAAAAGACAGCCCUCCUCCCAGCCCCCAACUCACUAGGAGACACAAACGUUACCAUAGAAGAGCAAUUUAACUCAAUAAAUUUAUCUUUUCAGGAUGAUCCCGACUCCAGUACCACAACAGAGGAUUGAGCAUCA | 0.598 ratio |
| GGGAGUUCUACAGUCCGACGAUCAUGUUAAUUAGAGGUAGUAUAUGUUUCAUAAUGAAGAGUCUUUAAAUUUUGUUUGUCAUAUAGUAUUUUGGGAUUUAUAUAAUGAGGAUGAUUAGAAGCCACAUAAAUGGCUUUUUUAACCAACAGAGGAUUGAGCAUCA | 0.361 ratio |
| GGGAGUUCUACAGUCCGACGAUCCAAUUCAAUGGUUGAGGGUUCAGAACUCAAAAAGGUUCGCUCCAACUCUAGAAUUUAUCAUAGGUACUUUUUACUGGAUGCCGACAUGCAGAGCCUGAGAUGGGAGCCAUCUAAGAAGGACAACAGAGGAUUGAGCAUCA | 0.359 ratio |

Some of these lines once more (study 2):
| Sequence | fitted relative affinity |
| --- | --- |
| AGATGCCAAGAGGCATGATGGTGCTAG | -0.491 z-score |
| GACGGTATCGTTTTCCTGACGTGCTAG | 2.27 z-score |
| TTAGGTTTCGGTATCGGTGAGTGCTAG | 7.66 z-score |
| GACGGTCTCGGACTGGGTACGTGCTAG | -0.526 z-score |
| TCATCTTTAACATATTCTACTGTGCTA | 0.96 z-score |
| TCAGGACTGCTTCTCCTTTAGTGCTAG | 0.981 z-score |
| GCAGGGCAGGCAGGCTGAGGGTGCTAG | -1.58 z-score |
| GACGAACAGAGACTGGAGACGTGCTAG | -0.348 z-score |
